Experimental data gathered from unrelated publications.
Each numbered part is a random draw from the data of one study; scales do not carry over between parts.

Set 1 — method: protein-binding microarray; molecule type: double-stranded DNA, one strand shown; matrix: in vitro; concentration: not given; reading: higher = stronger binding
Target: Max-binding protein MNT, bHLH-zipper, MAX partner unstated (MNT, Homo sapiens, UniProt Q99583, residues 220-300)
Setting: k-mer, scored over probes, only values ≥0.25
Target sequence (chain): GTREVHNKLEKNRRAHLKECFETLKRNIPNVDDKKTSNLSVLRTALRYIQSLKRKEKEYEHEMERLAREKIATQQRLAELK
| Strand | E-score |
| --- | --- |
| CCCCGCCA | 0.357 |
| ATTCCACG | 0.361 |
| CACGCACG | 0.404 |

Set 2 — method: universal PBM; molecule type: double-stranded DNA, one strand shown; matrix: in vitro; concentration: 600 nM; reading: higher = stronger binding
Target: Sal-like protein 4, full length isoform A (SALL4, Homo sapiens, UniProt Q9UJQ4, residues 1-1053)
Chain of UniProt Q9UJQ4 (whole entry, looked up): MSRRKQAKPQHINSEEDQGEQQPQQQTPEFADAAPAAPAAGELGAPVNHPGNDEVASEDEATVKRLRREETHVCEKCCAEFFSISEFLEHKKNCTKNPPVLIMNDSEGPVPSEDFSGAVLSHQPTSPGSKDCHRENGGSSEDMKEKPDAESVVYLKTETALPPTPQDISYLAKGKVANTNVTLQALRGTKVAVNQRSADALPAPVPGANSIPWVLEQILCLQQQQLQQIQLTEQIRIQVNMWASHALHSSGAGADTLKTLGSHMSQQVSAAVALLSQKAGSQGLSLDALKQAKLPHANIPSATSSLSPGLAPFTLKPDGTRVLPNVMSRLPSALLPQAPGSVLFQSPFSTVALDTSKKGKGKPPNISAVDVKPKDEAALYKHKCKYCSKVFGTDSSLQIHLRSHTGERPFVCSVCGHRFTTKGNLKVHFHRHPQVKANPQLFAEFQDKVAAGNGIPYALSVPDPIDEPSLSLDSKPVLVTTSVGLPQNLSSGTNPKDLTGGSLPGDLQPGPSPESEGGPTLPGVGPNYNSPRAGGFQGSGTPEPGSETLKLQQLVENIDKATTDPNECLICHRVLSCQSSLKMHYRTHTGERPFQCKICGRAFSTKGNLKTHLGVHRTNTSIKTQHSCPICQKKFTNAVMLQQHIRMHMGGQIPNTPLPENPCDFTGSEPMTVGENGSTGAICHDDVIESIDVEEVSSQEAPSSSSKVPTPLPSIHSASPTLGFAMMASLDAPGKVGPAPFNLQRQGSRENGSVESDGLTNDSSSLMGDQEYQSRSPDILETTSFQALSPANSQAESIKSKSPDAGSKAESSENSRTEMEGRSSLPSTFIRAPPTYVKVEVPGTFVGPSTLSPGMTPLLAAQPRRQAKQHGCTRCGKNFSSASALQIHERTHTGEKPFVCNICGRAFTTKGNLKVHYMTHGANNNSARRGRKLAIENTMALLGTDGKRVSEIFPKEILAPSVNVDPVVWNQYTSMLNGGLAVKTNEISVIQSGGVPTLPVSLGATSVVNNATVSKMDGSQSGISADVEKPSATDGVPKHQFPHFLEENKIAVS
Setting: 8-mer, flanks averaged, mean of replicates
| Strand | E-score |
| --- | --- |
| TACCAATA | 0.261 |
| CTAACGTA | 0.283 |
| AAATGCTC | 0.104 |
| GGGTTTGA | -0.00807 |
| AAGCTGGG | -0.151 |
| AAGAGTAA | 0.218 |

Set 3 — method: protein binding microarray; molecule type: double-stranded DNA, one strand shown; matrix: in vitro; concentration: not given; relative to: not given; reading: higher = stronger binding
Target: Histone acetyltransferase KAT6A, both winged helices, GST fusion (KAT6A, Homo sapiens, UniProt Q92794, residues 1-181)
Setting: 8-mer, flanks averaged, mean of 2 arrays, mostly near background
Construct (chain): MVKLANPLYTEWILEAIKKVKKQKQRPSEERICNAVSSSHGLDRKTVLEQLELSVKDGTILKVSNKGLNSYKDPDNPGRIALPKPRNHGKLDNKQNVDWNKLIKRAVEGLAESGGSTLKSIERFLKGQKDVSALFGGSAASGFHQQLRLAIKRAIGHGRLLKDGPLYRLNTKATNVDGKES
| Strand | E-score |
| --- | --- |
| ACACCGCG | 0.346 |
| ACTCGGTA | 0.00535 |
| CGTTAACG | 0.133 |
| CCTAGCAG | -0.162 |
| ACAAGTAC | -0.132 |
| CTGGGCCA | -0.211 |

Single results of other studies
| Molecule | target | test | test system | setting | scale | quantity | result |
| --- | --- | --- | --- | --- | --- | --- | --- |
| PhoQ, residues 284 288 289 292 302 303 SSYNSA | PhoP, residues 12 14 15 18 19 SQCLL (Escherichia coli, UniProt P23836) | Sort-seq, measured: YFP reporter | E. coli | PhoQ-PhoP variant library, added: 10 µM Mg2+ | relative to: high Mg2+ state, higher = stronger signaling | fold induction | 16.9 |

Excerpt of the above (set 3):
| Strand | E-score |
| --- | --- |
| ACTCGGTA | 0.00535 |
| CGTTAACG | 0.133 |
| CCTAGCAG | -0.162 |
